# Published values pooled from the literature.
# A part holds a random share of what one study measured. Changes are numbered by the printed parent chain.

# Sample 1
# Target: Sal-like protein 4, full length isoform A (SALL4, Homo sapiens, UniProt Q9UJQ4, residues 1-1053)
# UniProt Q9UJQ4, sequence (whole entry, looked up): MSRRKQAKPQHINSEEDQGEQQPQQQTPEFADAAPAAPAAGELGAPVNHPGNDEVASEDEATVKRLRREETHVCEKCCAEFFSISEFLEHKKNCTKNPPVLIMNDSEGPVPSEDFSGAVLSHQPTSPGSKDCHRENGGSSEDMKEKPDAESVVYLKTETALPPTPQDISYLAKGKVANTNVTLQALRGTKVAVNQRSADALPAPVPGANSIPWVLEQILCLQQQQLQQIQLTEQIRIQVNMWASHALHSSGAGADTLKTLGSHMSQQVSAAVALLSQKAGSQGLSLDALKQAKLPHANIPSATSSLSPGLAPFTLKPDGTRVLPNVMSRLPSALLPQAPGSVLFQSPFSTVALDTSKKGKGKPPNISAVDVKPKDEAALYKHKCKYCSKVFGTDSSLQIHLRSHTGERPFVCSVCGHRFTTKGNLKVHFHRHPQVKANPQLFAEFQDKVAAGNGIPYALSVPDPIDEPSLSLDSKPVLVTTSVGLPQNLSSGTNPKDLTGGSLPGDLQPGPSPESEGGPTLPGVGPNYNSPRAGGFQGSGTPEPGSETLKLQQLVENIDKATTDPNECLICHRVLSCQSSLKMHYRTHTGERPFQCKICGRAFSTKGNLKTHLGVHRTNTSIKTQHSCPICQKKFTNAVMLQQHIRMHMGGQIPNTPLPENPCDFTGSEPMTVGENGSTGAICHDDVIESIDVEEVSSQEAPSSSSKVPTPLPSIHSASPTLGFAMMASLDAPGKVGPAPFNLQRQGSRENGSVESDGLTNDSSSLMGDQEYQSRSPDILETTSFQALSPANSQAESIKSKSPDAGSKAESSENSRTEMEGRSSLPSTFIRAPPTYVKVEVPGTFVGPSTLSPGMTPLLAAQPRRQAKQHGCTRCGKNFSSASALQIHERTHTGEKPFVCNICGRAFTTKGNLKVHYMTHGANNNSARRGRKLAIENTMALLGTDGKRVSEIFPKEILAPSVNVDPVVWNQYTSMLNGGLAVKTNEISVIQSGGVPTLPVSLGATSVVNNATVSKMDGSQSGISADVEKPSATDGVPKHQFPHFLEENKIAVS
# Technique: universal PBM
# Molecule type: double-stranded DNA, one strand shown
# Matrix: in vitro
# Tested at: 600 nM
# Setting: 8-mer, flanks averaged, mean of replicates
# Reading: higher = stronger binding
Sequence,E-score
AGGCGCCA,-0.188
CTCGAGTA,0.0167
TGTTTTAA,0.329
GCGATGCA,-0.235
CGTGTTCA,0.0741
CCGGTCTA,-0.263
GGTGAAAC,-0.079
CCCGGTAA,-0.248
GATCTACC,-0.155
ACAGGCCT,-0.109
CAAGGGTC,-0.239
CGTATTGC,-0.0364
CAGGCGAG,-0.244
AGTAGCCG,-0.245
AATGGGAG,-0.034
CACGCCCG,-0.313
CGGCCTAC,-0.196
AATGCCCT,-0.0746
AGTTGGCA,0.0188
GCCTTCGC,-0.105

# Sample 2
# Target: Histone acetyltransferase KAT6A, winged helix 1, GST fusion (KAT6A, Homo sapiens, UniProt Q92794, residues 1-85)
# Technique: protein binding microarray
# Molecule type: double-stranded DNA, one strand shown
# Matrix: in vitro
# Tested at: not given
# Setting: 8-mer, flanks averaged, mean of 2 arrays, mostly near background
# Reference: not given
# Reading: higher = stronger binding
# Construct (chain): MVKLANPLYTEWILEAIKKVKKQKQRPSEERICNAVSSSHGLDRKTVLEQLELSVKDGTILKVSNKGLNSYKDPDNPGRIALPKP
Sequence,E-score
CGTTATTC,-0.0239
TGATTACA,-0.092
CTTCGGGC,0.0267
AGAGGCGC,0.266
CACCTAAA,-0.221
AACCATCC,0.0572
GTAAGCCA,-0.14
AACCCAGA,-0.25
ACCTAATA,-0.0278
AGTTATAG,-0.153
CGGATCAA,0.0637
AGTGTGGG,-0.146
ACCATGCA,-0.0593
GAGGGGGA,-0.159
ATAAACGG,0.153
TACTACAA,0.0106
GTTTCTCA,-0.19
ATCCAGAC,-0.025
CCGGCTAC,0.249
ATATTTTA,-0.121
AGGTGGGG,-0.263
AAGCTTCG,-0.144
ATTGGATC,-0.0904
CCAAGAGA,-0.18
AGACCAGG,-0.0995

# Sample 3
# Target: CCNF, cyclin fold, Cln2 fusion (human)
# Technique: yeast growth competition, sequencing
# Matrix: yeast
# Setting: strong parent motif
# Reference: not given
# Reading: higher = stronger binding
# Starting sequence: DTL docking peptide (human); PSSMRKICTYFHR
Change,normalised enrichment score
R13A,1.61
F11A,0.854
C8A,0.683
P1A,1.61
R5A,1.76
S3A,2

# Sample 4
# Target: ABI1, truncated, D143A, DHFR fusion (Arabidopsis thaliana)
# Technique: DHFR PCA, deep sequencing
# Matrix: yeast
# Setting: methotrexate growth selection, single substitutions
# Added: (+)-ABA 2500 µM
# Reference: wild-type fitted maximum
# Reading: higher = stronger binding
# Starting sequence: PYL1, truncated, DHFR fusion (Arabidopsis thaliana); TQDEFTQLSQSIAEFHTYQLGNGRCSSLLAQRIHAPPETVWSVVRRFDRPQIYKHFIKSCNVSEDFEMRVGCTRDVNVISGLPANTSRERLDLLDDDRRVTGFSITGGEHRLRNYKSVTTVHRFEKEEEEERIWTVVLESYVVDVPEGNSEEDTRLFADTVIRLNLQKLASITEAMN; partner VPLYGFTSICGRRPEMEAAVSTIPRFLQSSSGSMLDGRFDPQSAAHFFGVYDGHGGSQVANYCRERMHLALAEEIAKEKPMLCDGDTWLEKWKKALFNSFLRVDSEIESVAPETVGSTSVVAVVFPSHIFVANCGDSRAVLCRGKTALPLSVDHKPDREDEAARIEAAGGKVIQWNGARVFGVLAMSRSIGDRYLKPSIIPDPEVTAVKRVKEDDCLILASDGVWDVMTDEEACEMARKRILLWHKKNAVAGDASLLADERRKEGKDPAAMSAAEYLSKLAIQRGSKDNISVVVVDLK
Change,relative binding score
F56T,69.2%
V43M,91.6%
R45G,78%
L29N,101%
A84F,62.7%
H16E,53.6%
P36H,93.4%
A35F,53.7%
G23C,92.4%
S26L,74.9%
W41T,-3.36%
V62Q,85.5%
N61L,95.4%
I12N,79.1%
F124N,94%
A35S,96.4%
D153H,89.4%
